Results gathered from unrelated publications.
Parts stem from different laboratories: compare values within a part only.

Study 1
Target: Sal-like protein 4, full length isoform A (SALL4, Homo sapiens, UniProt Q9UJQ4, residues 1-1053)
Chain of UniProt Q9UJQ4 (whole entry, looked up): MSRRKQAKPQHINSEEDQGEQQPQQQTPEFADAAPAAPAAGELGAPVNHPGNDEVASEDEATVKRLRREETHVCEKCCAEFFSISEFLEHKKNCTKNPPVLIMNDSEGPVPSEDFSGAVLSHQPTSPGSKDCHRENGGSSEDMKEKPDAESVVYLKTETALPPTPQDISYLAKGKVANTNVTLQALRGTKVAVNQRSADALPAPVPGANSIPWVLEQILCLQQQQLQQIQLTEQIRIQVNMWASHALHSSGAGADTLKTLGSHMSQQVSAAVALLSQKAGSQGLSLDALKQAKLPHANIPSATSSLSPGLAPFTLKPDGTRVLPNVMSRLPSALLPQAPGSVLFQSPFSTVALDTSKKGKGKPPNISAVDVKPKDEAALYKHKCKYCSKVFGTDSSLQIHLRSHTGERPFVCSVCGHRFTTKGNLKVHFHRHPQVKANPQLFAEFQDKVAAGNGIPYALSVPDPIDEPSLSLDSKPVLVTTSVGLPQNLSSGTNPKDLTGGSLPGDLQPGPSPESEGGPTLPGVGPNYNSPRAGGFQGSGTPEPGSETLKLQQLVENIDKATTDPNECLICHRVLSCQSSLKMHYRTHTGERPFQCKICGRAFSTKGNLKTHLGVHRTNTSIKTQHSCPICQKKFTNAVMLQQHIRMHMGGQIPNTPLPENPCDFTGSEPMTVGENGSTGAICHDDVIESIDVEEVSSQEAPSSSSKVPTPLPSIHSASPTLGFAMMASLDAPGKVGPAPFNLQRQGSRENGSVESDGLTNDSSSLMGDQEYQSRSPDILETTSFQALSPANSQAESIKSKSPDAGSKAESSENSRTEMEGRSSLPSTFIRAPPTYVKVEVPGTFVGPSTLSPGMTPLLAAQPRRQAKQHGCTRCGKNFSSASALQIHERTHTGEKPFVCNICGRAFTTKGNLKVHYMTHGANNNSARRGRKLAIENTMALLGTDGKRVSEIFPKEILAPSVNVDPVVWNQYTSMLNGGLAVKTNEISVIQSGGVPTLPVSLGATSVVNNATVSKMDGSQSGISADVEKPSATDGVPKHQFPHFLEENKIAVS
Method: universal PBM
Form: double-stranded DNA, one strand shown
Medium: in vitro
Tested at: 600 nM
Notes: 8-mer, flanks averaged, mean of replicates
Direction: higher = stronger binding
| Sequence | E-score |
| --- | --- |
| ACCCAAGT | -0.0516 |
| GCTGAAGA | -0.0926 |
| CATCTGGA | -0.179 |
| GACATAAC | 0.239 |
| CAGGGTGG | -0.211 |
| AAGCCTTC | -0.0919 |
| GAGTGCCA | -0.184 |
| AATATTAC | 0.435 |
| AACTCAGC | 0.0162 |
| GACAGGTC | -0.197 |
| ACCACTTG | 0.00276 |
| ACACTTCC | -0.058 |
| TTCCCGAA | 0.0813 |
| AAGCTATA | 0.23 |
| ACTAGTCA | 0.0201 |
| ACGGTTGC | -0.203 |

Study 2
Target: Max dimerization protein 1, bHLH-zipper, MAX partner unstated (MXD1, Homo sapiens, UniProt Q05195, residues 56-136)
Method: protein-binding microarray
Form: double-stranded DNA, one strand shown
Medium: in vitro
Tested at: not given
Notes: k-mer, scored over probes, only values ≥0.25
Direction: higher = stronger binding
Construct (chain): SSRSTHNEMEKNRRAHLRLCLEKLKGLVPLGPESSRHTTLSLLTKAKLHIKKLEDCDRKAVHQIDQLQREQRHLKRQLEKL
| Sequence | E-score |
| --- | --- |
| ACATGAGA | 0.345 |
| AATGTGTG | 0.274 |
| ACACGCCG | 0.372 |
| ACGTGGGG | 0.366 |
| AAGCGTGA | 0.363 |
| ACGTGGAT | 0.402 |
| AAGCACAT | 0.306 |
| GCGTGACA | 0.31 |
| CGTGAATA | 0.258 |
| ATGTGTCG | 0.322 |
| CCCCTCCC | 0.392 |
| ATGCCCCC | 0.307 |
| GTGCAGAA | 0.303 |
| AACGTGTA | 0.326 |
| CATGGTAG | 0.333 |
| CGCATGGA | 0.349 |
| GTCACCAC | 0.252 |
| CGGGCACA | 0.293 |

Study 3
Target: Interferon regulatory factor 5, full length, phosphomimetic (IRF5, Homo sapiens, UniProt Q13568-2, residues 1-514, S451D/S453D/S456D/S462D)
Method: protein-binding microarray
Form: double-stranded DNA, one strand shown
Medium: in vitro
Tested at: 940 nM top
Notes: 60-bp whole probe
With: salmon DNA 0.4 mg/ml
Baseline: random background probes
Direction: higher = stronger binding
All sequences stand within: GCCTAGCAC … GTCTTGATTCGCTTGACGCTGCTG
| Sequence | fitted relative affinity |
| --- | --- |
| TTAGGTTTCGGACCGGGTTAGTGCTAG | 7.16 z-score |
| GACGATATCGGGAATGGAGACGTGCTA | 0.106 z-score |
| TTGGGTCTCCTTCTCCTTTAGTGCTAG | 0.57 z-score |
| GACGGACTGCGTTTCCTGACGTGCTAG | -0.478 z-score |
| CTAGAACTGAGTTTCGATTAGTGCTAG | 7.96 z-score |
| TTAGGTCTCCTTATCATTTAGTGCTAG | 0.704 z-score |
| TACGGACTGGGGTTTCGGGACGTGCTA | 1.77 z-score |
| TCAGTCTTGGTTCTCAGACTGTGCTAG | 1.23 z-score |
| TTAGGACTGTGGTTTCGGTTAGTGCTA | 6.64 z-score |
| GACGATCTCAGTTTCGGGACGTGCTAG | 3.93 z-score |
| GACGGTATCCTTCTCCCGACGTGCTAG | 1.06 z-score |
| TTAGGACTGGGTATCCGTTAGTGCTAG | -0.0586 z-score |
| CTTCCTTTACTTTCTTTTTTGTGCTAG | 2.64 z-score |
| CACTTTCTTTACTTCACTCTGTGCTAG | 2.82 z-score |
| GACGGTCTCGGTATCGGGCCGTGCTAG | 4.45 z-score |
| TCATTCCTGAAATCTCTTACTGTGCTA | 0.863 z-score |
| CAAGTTACCCACCTCAGGTAGTGCTAG | 0.155 z-score |
| TCAAGTTTTCTTTTCCAACTGTGCTAG | 1.05 z-score |
| TTTCATTGCTGCCCTCAGAAAGTGCTA | 4.65 z-score |
| TCAGGTTTACCAGATCATCTGGTGCTA | 0.0384 z-score |
| TCAGGTATAGCACTAAGACTGTGCTAG | -0.471 z-score |
| TTAGGTATGGACTTTCGGTTAGTGCTA | 2.1 z-score |
| TCAGTTATAATATTATTACTGTGCTAG | 0.165 z-score |

Study 4
Target: RNA binding protein fox-1 homolog 2, RRM domain, GST-SBP tag (RBFOX2, Homo sapiens, UniProt O43251-10, residues 100-194)
Method: RNA Bind-n-Seq
Form: RNA
Medium: in vitro
Tested at: 365 nM
Notes: natural RNA segment, single round, ends assumed
Baseline: no-protein control
Direction: higher = stronger binding
Construct (chain): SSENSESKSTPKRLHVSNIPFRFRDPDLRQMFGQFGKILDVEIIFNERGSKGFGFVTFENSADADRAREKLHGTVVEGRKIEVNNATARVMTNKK
| Sequence | RBNS enrichment (R) |
| --- | --- |
| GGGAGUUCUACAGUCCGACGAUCCCCAUUUGCCCCUGUCCAGACUGUUUCUUUUGGCUUAGACCAUAAUCCUCUGCUGCCCGGGGCAUUGGAGCCCCUGUGCUAGGAAGCUGUCAGUUUUGAGUAUCAUUGGCUGGAAUUCUCGGGUGCCAA | 0.4 |
| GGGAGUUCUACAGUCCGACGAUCCUGGUUUCAACUCUACUGCGAAACAAAAAUAGCUCCUUAAAAGUACUGUUCUCCUUCAGUGGCAUGUAGUUAUCUAAUCAAGACACCUCAUUCAAACAAAACCUGCCUUAUGGAAUUCUCGGGUGCCAA | 0.465 |
| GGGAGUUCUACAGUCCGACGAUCUGCAGGCUUCCCGUCACGUGUCCCUGCUGGAAGGCUAUUCAGUGUUUGUAUUUAUUGUGCCUUACAUAGGAAGGAAGGGACUCAACUGAAUCCCUCCUCCCUCUAAACAGUGGAAUUCUCGGGUGCCAA | 0.29 |
| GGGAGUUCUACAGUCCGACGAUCAAUUUUACAUUGUAUUAGAUUUUCUGAUUCUUUUGUAAAUACAGAACUUAAAUAGAAGGCAACAGGAAAUUUAUAUAGGAACUAUUUUCAUUCCACUUGUGUAAGUUAAGUGGAAUUCUCGGGUGCCAA | 0.976 |
| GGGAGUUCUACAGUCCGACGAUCCCAGUUUCCUCUCCGUCUCACGGAUCCCCCGGCCAUGUUCAGUCCACCCCUCUCUCUCUCUCAACUUCAGAUGCCUCUGGCUGUUCUCAUGUCUAUAAUAAGAACCUCCCUGGAAUUCUCGGGUGCCAA | 0.599 |
| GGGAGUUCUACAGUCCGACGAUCGGGUUUCUGAAAAACAGCAGGAUUAAGUACUGAAAGAGCCCAACACAAUUACCCUGUAAACUCUCUGUUAGGGCAACCACCACCACCUGUCUUCCAGGACACAUUUUUAGUGGAAUUCUCGGGUGCCAA | 0.5 |
| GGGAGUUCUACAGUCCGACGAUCAGCAAACUAACACCAAGUGCCAGAGUCCUGGAUGUGCAAUUGGUUUAAGUGUUCAUGUUCUAGUGAACACAGCUUGUUCAGGAACAAACACUAAAACGAUUUGAGUAGAGUGGAAUUCUCGGGUGCCAA | 0.355 |
| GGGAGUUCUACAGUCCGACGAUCGUCUUUUGAUAUAUUCUAAGCUAUCCUCCUUCCCCUCCUUGGUUACAGGUGUACUCUGCCAUGUGUAGCUCUUAAAACGGCCCAUGGUACCUACUAAGCAGAGCAAGGCCUGGAAUUCUCGGGUGCCAA | 0.257 |
| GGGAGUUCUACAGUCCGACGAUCAGAAAAUCUAUAAGCCUAAGUUAUGGCCCAUAGGUUUUGUUAAGGGUUUUCAGAGUGAUUUUCAGGUUUAAUUUCACUGCCUUUCAUAAGGGUAAAGUUUCACAGCUGACUGGAAUUCUCGGGUGCCAA | 0.462 |
| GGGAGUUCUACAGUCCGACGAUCGAAAUUGCUGGAGCCGGCUCCAAGCAGAUAAUUCACUGGGGAGGUUUUCAGAGUCAAACAUCAUUCUGCCUGUGUUGGGGGCCAGGUGUGUCACACAAGCAUCUCAAAGUUGGAAUUCUCGGGUGCCAA | 0.664 |
| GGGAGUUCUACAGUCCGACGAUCGGGGAAAAAACUAAAAUGUGUGGAGUGUAAACAAACUCACUGACCACGUGGCUCUUGGACCUUGAUUUAGAAAGGCUCAUACUCCCAGGAAAACACCCAUUUUGAUACAAUGGAAUUCUCGGGUGCCAA | 0.232 |
| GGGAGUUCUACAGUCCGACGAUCAGCUGCAGACAUGAGCCUUCCCGCCUCAACACAUCCUCCGUAGAAGGGACCCCCUCCCUGCUCCUGGGUCCCUGCGUGUGUGGGUGUGUGUCCGUGUGCAUGGCCUGUUUUGGAAUUCUCGGGUGCCAA | 3.65 |

Excerpt of the above (study 3):
| Sequence | fitted relative affinity |
| --- | --- |
| GACGATATCGGGAATGGAGACGTGCTA | 0.106 z-score |
| TTAGGACTGTGGTTTCGGTTAGTGCTA | 6.64 z-score |
| CTAGAACTGAGTTTCGATTAGTGCTAG | 7.96 z-score |
| TCAGGTATAGCACTAAGACTGTGCTAG | -0.471 z-score |
| CACTTTCTTTACTTCACTCTGTGCTAG | 2.82 z-score |
| TTGGGTCTCCTTCTCCTTTAGTGCTAG | 0.57 z-score |
| GACGGTCTCGGTATCGGGCCGTGCTAG | 4.45 z-score |
| GACGATCTCAGTTTCGGGACGTGCTAG | 3.93 z-score |
| TCAGTTATAATATTATTACTGTGCTAG | 0.165 z-score |
| TCAGTCTTGGTTCTCAGACTGTGCTAG | 1.23 z-score |
| GACGGACTGCGTTTCCTGACGTGCTAG | -0.478 z-score |
